Experimental data from different studies.
Each numbered part is a random draw from the data of one study; scales do not carry over between parts. Positions count from the first letter of the parent shown.

Sample 1 — method: RNA Bind-n-Seq; form: RNA; sample: in vitro; concentration: 200 nM; setting: whole 134-nt RNA, ends assumed; added: 150 mM KCl; relative to: input library; direction: higher = stronger binding
Target: Fragile X messenger ribonucleoprotein 1, C-terminal low-complexity region (Fmr1, Mus musculus, UniProt P35922)
Shared flanks, not repeated: GGGAGUUCUACAGUCCGACGAUC … UGGAAUUCUCGGGUGUCAAGG
Oligonucleotide | log2 enrichment
UCCUCAAGUCCUGUGCUACACAUCGUAUGUACCGAAUCGGCGGCGGGCGGGGAAAGUAUUAUGUUACGCCGUUCGGAUCUGCACUUCCAG | 0.444
UGUUGUCUGGGUUUGGGGGUCGAGUAGAUGCGGGGCAGCCGGAGCUGUUGACGGAAAGGAGUAGCCCCAAAGGAGGGCAUGUGAAGUCGC | -0.164
UGGCCCUGGUGGCAUACGGGGAGGAAGAGGUGGCCUCAUGGAUCGUGGUGGUCCCGGUGGAAUGUUCAGAGGUGGCCGUGGUGGAGACAG | 0.017
UCCUGUGCUACACAUCGUAUGUACCGAAUCGGGGUUUUUGGGGUUUUUUUGGGGUGGGGAAAGUAUUAUGUUACGCCGUUCGGAUCUGCA | 0.967
CACAGACAACACGCACCCACACAGACAGAGAGGGAAGGGGUUGGGAUGGGGACAGGGUGCACAGCAGGGCGGGGUAGGACCCCAGCCCCU | 1.21
CUGUGCUACACAUCGUAUGUACCGAAUCGGGUUUUUUUGGGUUUUUUUGGUUUUUUUGGGGAAAGUAUUAUGUUACGCCGUUCGGAUCUG | -0.866
UAACUUUAGAGGAGGAUCUGAUGGAUAUGGCAGUGGACGUGGAUUUGGGGAUGGCUAUAAUGGCUAUGGAGGAGGACCUGGAGGUGGCAA | 0.216
UCAAGUCCUGUGCUACACAUCGUAUGUACCGAAUCGGGGUUGGGGUUGGGGUUGGAAAGUAUUAUGUUACGCCGUUCGGAUCUGCACUUC | 0.231
AACAUGCAGGUGGGCAUCUUUGGGAAGUGGGGCAAGGGGGGGAUAGGGAGGGGGGUAACACUUUGGGAACAGGUGGUCCCAGGUCGUUUC | 0.762
UAACUUUAGAGGAGGAUCUGAUGGAUAUGGCAGUGGACGUGGAUAUGGGGAUGGCUAUAAUGGGUAUGGAGGAGGACCUGGAGGUGGCAA | 0.32
ACCAUGCAGGUGGGCAUCUUUGGGAAGGGGGGCAAGGGGGGGAUAGGGAGGGGGGUAACACUUUGGGAACAGGUGGUCCCAGGUCGUUUC | 0.546
AAGUCCUGUGCUACACAUCGUAUGUACCGAAUCGGGGUUUGGGGAAAGGGGAGGGGAAAGUAUUAUGUUACGCCGUUCGGAUCUGCACUU | 0.722
CAAGUCCUGUGCUACACAUCGUAUGUACCGAAUCGGUUUGGGUUUGGGGUUUGGGAAAGUAUUAUGUUACGCCGUUCGGAUCUGCACUUC | -0.107
AGUCCUGUGCUACACAUCGUAUGUACCGAAUCGGGAAAAAGGAAAAAGGAAAAAGGGGAAAGUAUUAUGUUACGCCGUUCGGAUCUGCAC | -0.302

Sample 2 — target: CCNA2, cyclin fold, Cln2 fusion (human); method: yeast growth competition, sequencing; sample: yeast; setting: weak parent motif; relative to: not given; direction: higher = stronger binding
Starting sequence: SLBP docking peptide (human); ARYKRKLLINDFG
Substitution | normalised enrichment score
L7C | 1.59
G13F | 1.4
R5N | 0.719
L8Y | 0.963
R2M | 0.994
N10A | 1.46
K6T | 1.32
G13A | 1.18
L8G | 1.35
K4N | 1.31
I9N | 1.4
R5D | 0.159
K6F | 1.36
F12Q | 0.794
Y3D | 1.49
G13K | 1.55

Sample 3 — method: aptamer microarray, sandwich; form: DNA with 2'F-ANA; sample: in vitro; concentration: 200 nM; added: Cy3 exosite-II aptamer, 400 nM; direction: higher = stronger binding; oligonucleotide: GGTTGGTGTGGTTGG
Target: Prothrombin, mature alpha-thrombin (F2, Homo sapiens, UniProt P00734)
Setting: whole 15-mer aptamer, many near background
Modification | mean fluorescence intensity
2'F-ANA at 3 4 5 8 11 12 14 | 57.6 a.u.
2'F-ANA at 1 4 5 8 12 13 14 | 73 a.u.
2'F-ANA at 2 3 6 7 9 10 12 13 14 | 246 a.u.
2'F-ANA at 1 2 3 4 5 7 10 11 12 13 14 15 | 48.7 a.u.
2'F-ANA at 2 3 4 5 7 8 9 10 11 15 | 80.4 a.u.
2'F-ANA at 1 2 4 5 7 12 | 105 a.u.
2'F-ANA at 3 4 7 8 9 11 12 14 | 334 a.u.
2'F-ANA at 2 3 5 9 10 12 | 62.5 a.u.
2'F-ANA at 1 2 3 5 6 7 8 9 10 13 15 | 54.3 a.u.
2'F-ANA at 4 8 9 10 12 | 109 a.u.
2'F-ANA at 2 3 6 7 13 14 | 394 a.u.
2'F-ANA at 3 4 8 9 10 12 13 14 | 188 a.u.
2'F-ANA at 1 2 4 6 7 9 10 13 14 15 | 50.1 a.u.
2'F-ANA at 4 5 6 7 8 10 12 14 15 | 43.5 a.u.
2'F-ANA at 1 6 8 11 12 14 15 | 70.7 a.u.
2'F-ANA at 4 5 8 9 12 14 15 | 50.3 a.u.
2'F-ANA at 1 3 4 5 6 10 11 15 | 46.5 a.u.
2'F-ANA at 2 3 5 6 7 8 10 11 15 | 56.2 a.u.
2'F-ANA at 2 4 6 7 8 10 13 14 15 | 57.7 a.u.
2'F-ANA at 1 2 4 7 8 10 11 12 13 15 | 57.4 a.u.
2'F-ANA at 1 4 5 6 7 8 9 10 | 47.8 a.u.
2'F-ANA at 1 2 3 6 10 12 13 15 | 133 a.u.
2'F-ANA at 1 2 3 6 8 10 14 | 57.5 a.u.
2'F-ANA at 1 2 3 6 7 8 10 11 14 15 | 72.1 a.u.
2'F-ANA at 3 4 5 6 7 9 13 | 57.3 a.u.

Sample 4 — method: protein binding microarray; form: double-stranded DNA, one strand shown; sample: in vitro; concentration: not given; relative to: not given; direction: higher = stronger binding
Target: Histone acetyltransferase KAT6A, winged helix 2, GST fusion (KAT6A, Homo sapiens, UniProt Q92794, residues 85-181)
Setting: 8-mer, flanks averaged, mean of 2 arrays, mostly near background
Target sequence (chain): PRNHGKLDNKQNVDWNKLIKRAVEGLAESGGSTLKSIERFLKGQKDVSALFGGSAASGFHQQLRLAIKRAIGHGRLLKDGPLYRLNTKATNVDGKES
Oligonucleotide | E-score
AGTAAAGG | 0.0285
CATGCAAA | -0.0623
CATCGTGA | -0.021
ATGGTAGG | -0.113
CTACGCGA | 0.144
ACTCATCG | -0.0348
ACTTACCA | -0.131
ACAATAGA | -0.0209
CAAAGTCG | 0.0685
GCCCCATA | -0.0331
ATGATCAA | -0.0327
AAGTAATC | -0.0507
ACGTGAAC | -0.323
AGTAGTAA | -0.197
AGCGTCTG | -0.032
ATTAATAG | 0.111
GCCTTAAC | -0.127
CTCAATTC | -0.0929
TAGTCTCA | -0.147
GGAGCCTA | 0.154
CGTTTCTC | 0.0473
CGTCGCAG | 0.264
CAGGAGGC | 0.0134
CCATTGGC | -0.0157
AGGGCTGA | -0.017

Sample 5 — method: RNA Bind-n-Seq; form: RNA; sample: in vitro; concentration: 365 nM; relative to: no-protein control; direction: higher = stronger binding
Target: RNA binding protein fox-1 homolog 2, RRM domain, GST-SBP tag (RBFOX2, Homo sapiens, UniProt O43251-10, residues 100-194)
Setting: natural RNA segment, single round, ends assumed
Shared flanks, not repeated: GGGAGUUCUACAGUCCGACGAUC … UGGAAUUCUCGGGUGCCAA
Target sequence (chain): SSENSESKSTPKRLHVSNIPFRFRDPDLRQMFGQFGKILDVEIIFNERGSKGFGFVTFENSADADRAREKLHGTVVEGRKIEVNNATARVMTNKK
Oligonucleotide | RBNS enrichment (R)
AUAAAGAGUCAAUCUCUUAAUUAUAUUUUUCAUCAUGUAAACAAGUUUCCCAUUUCCCUUUCUUAGAUUGCACCAGUGAAGGAGAUGUUUUGCAAAGAUUCAGAGAACUA | 0.638
AAUUUCAGAAUGGUUUCUUAAAUUUCCUUGGGAACCGUUUCCACAUAUCAGUUAUAGACAAAGGCCAUGGGACUAUGCUAAACCAAUAAAACCUUAUUAGCAAAUCUUUA | 0.393
AACAACACCUCAUUCUUAACUGUGUGGCCAAUGUCAGGUAUACCAAAGCAUUCCUCUGACUGCUUUUUGGGGCAGUGUUGACAGGAGUGAGGCAUUUUGGAAACUCCAAG | 0.222
GGUUUGGGUGGUGUGCCUGCAGACUUCAUUUGUGCCAAUGUAUUACUGUAGAGUCGCUCUGUUUCCUUCAACUGUAUUUAUUGCUGCGUUUCUCAGCAUAAACUUAUCCC | 1.45
GGAUGCAAAUGUUUUCAGUUAGAAAGCCUUUAUUUACUUUUGGAAAUUGAACAAGAAAUGCAUCUGUCUUAGAAACUGGAGAUUAUUUGAUGUUAGGUAAAACAUGUAAU | 0.659
UAAAAUGACCAGUUUUCAGAUUCACCUGUGCGUGUGCCCCCCACUCCCAUCCCACCCUGUUCUUUCCAUAGAACUUUUGAUAUCAGGCAAACGGUUUCCUUUUUGAGAUA | 1.06
AGGACCACGUUUAUAGCUUCAGGACCUGGCUACGUAAUUAUACUUAAAAUAUCCACUGGACACUGUGAAAUACACUAACAGGAUGGCUGGGUAGAGCAAUCUGGGCACUU | 0.37
AGCCUUGGAAGGCUGCUUGCUCAUCUCACACCAUGCCUGGGCCAUGCCUUCCUCACCUCUGGAGCAGCAGCUGGCAGGCACAUCUGCCAUUUGUCCUGGAAUUGUCACGG | 0.417
GGGACCAGCGGGCAUUUGUUUUCUUGCUGACUUUGCACCUCCUUUUUUCCCCAAACACUUUGCCAGCCACUGGUGGUCCCUGCUUUUCUGAGUACCAUGUUUCCAGGAGG | 0.681
GAUAAGAAUAUUGCCUGGUUAAAAUUCUGCAUUGCUUAAAGACACCCAUGUUUAAGAUUUUUCAUCACUAACAUAUCCAUUAAAAGUAUCAACUGGCCAGGCAGGGUGGC | 0.552
AGUGCUGAAAUGAGCUUGAGGUGUUCUUCAAAGCCAGUGUCACUGUGUGGGUCACUGUGAGGUGACUGCAUGGUGCCUGGCCCUGGCACAGCUGGUGACUUCCCUUGUAG | 0.297
AUGUCAUAUUAUUUUGAAAGUACAAAAUAUACUAAAAGAGUGUGUGUGUAUUCACGCAGUUACUCGCUUCCAUUUUUAUGACCUUUCAACUAUAGGUAAUAACUCUUAGA | 0.28
